Experimental data pooled from the literature.
“And” joins repeats or separate records; there may be more than shown. ± gives the spread as reported.

Structure (SMILES)	assay	system	conditions	scale	AUC(0-t)
NC(=S)NN=Cc1ncccc1N		human, plasma	intravenous, 50 mg, geometric mean		784 ng·h/mL
CC(C)n1c(Nc2cccnc2)nc2cnc(Nc3ccc(N4CCN(C)CC4)cc3)nc21		human, male, plasma	oral, 150 mg, day 15, together with: rifampin 600 mg daily		972 ng·h/mL
Cc1cc(C)c(CNC(=O)c2cc(Cl)c3c(c2C)O[C@@](C)([C@H]2CC[C@H](N(C)C)CC2)O3)c(=O)[nH]1	mean	healthy male humans, plasma	oral, 25 mg, day 11, together with: itraconazole		3270 ng·h/mL
CO[C@@H]1[C@H](OC(=O)N2CC(CCN3CCOCC3)C2)CC[C@]2(CO2)[C@H]1[C@@]1(C)O[C@@H]1CC=C(C)C		humans, plasma	subcutaneous, 0.2 mg twice weekly, first dose		0.1 ± 0.06 ng·h/mL
COC(=O)N[C@@H](C)CNc1nccc(-c2cn(C(C)C)nc2-c2cc(Cl)cc(NS(C)(=O)=O)c2F)n1		human patients, plasma	oral, 450 mg twice daily, day 1, single dose, median, together with: binimetinib 45 mg once daily		26600 ng·h/mL
CCCCOc1nc(N)c2c(n1)N(Cc1cccc(CN3CCCC3)c1)CC(=O)N2		human	oral, 2 mg, mean		13.5 ng·h/mL
NC1(C(=O)N[C@@H](CCO)c2ccc(Cl)cc2)CCN(c2nc[nH]c3nccc2-3)CC1		human, plasma	dose not given, together with: enzalutamide		1160 ng·h/mL and 1100 ng·h/mL and 1840 ng·h/mL
Cn1cncc1[C@@](N)(c1ccc(Cl)cc1)c1ccc2c(c1)c(-c1cccc(Cl)c1)cc(=O)n2C		human patients	oral, 300 mg/m2, first dose, cycle 1, expanded cohort, median		6820 ng·h/mL
CO[C@H]1C[C@@H]2CC[C@@H](C)[C@@](O)(O2)C(=O)C(=O)N2CCCC[C@H]2C(=O)O[C@H]([C@H](C)C[C@@H]2CC[C@@H](OCCO)[C@H](OC)C2)CC(=O)[C@H](C)/C=C(\C)[C@@H](O)[C@@H](OC)C(=O)[C@H](C)C[C@H](C)/C=C/C=C/C=C/1C		human, plasma	oral, 5 mg, single dosing, together with: vorolanib 100 mg		203 ± 83 ng·h/mL
O=C(O)CCC(=O)O.[2H]C([2H])([2H])Oc1cc(C)c2[nH]ccc2c1CN1CC[C@@H](C2CC2)C[C@H]1c1ccc(C(=O)O)cc1	LC-MS/MS, geometric mean	human, plasma	50 mg, single dose, fasting		31700 ng·h/mL
NC[C@@]1(CC(=O)O)[C@@H]2CC[C@H]3C[C@@H]2[C@@H]1C3		human, severely renal impairment, plasma	dose not given, geometric least squares mean		6500 ng·h/mL
Cl.[2H]C([2H])([2H])CC(=O)c1cnc(NC(=O)C2CC2)cc1Nc1cccc(-c2ncn(C([2H])([2H])[2H])n2)c1OC	geometric mean	human	oral, 25 mg single dose, fasted, liquid		2110 ng·h/mL
CC(C)NC(=O)COc1cccc(-c2nc(Nc3ccc4[nH]ncc4c3)c3ccccc3n2)c1		human, male, fed, plasma	oral, 200 mg, day 3, geometric mean		9200 ng·h/mL
CCNCc1cc(Nc2ccnc3cc(Cl)ccc23)ccc1O		human, both sexes, plasma	oral, dose not given, non-fixed combination		38000 ng·h/mL
CNC(=O)n1ccc2cc(Oc3ccnc(NC(=O)c4ccc(C5CCN(CCO)CC5)cc4)c3)c(OCCOC)cc21		healthy human, plasma	oral, 35 mg, geometric mean, alone		106 ng·h/mL
C[C@H]1CN(C(=O)CC#N)[C@]12CCN(c1ncnc3[nH]ccc13)C2		healthy human, plasma	oral, 6 mg single, median		197 ng·h/mL
CCO		human, breath	0.5 g/kg, together with: 10 mg co-dosed drug		151 ± 21.5 h·mg/100 mL
C=CC(=O)N(C)CCOc1c(N)ncnc1-c1cc(F)cc(NC(=O)c2ccc(C3CC3)cc2F)c1C		human, whole blood	oral, 30 mg, single ascending dose		75.1 ng·h/mL
CN(CC#N)C(=O)C[C@H](Nc1nc2ccccc2[nH]1)c1cccc(C(F)(F)F)c1		human	intravenous infusion, 1 mg/kg, 5 mg/mL formulation		6750 ± 1940 ng·h/mL

Structure (SMILES)	assay	system	conditions	scale	AUC(0-t)
CCN1CCN(Cc2ccc(Nc3ncc(F)c(-c4cc(F)c5nc6n(c5c4)[C@H](C)CCC6)n3)nc2)CC1		human, plasma	50 mg single dose, mean		1420 ng·h/mL
CN[C@@H](C)C(=O)N[C@H]1CN(S(=O)(=O)c2cccc(S(=O)(=O)N3CC[C@H]4CC[C@@H](C(=O)NC(c5ccccc5)c5ccccc5)N4C(=O)[C@@H](NC(=O)[C@H](C)NC)C3)c2)CC[C@H]2CC[C@@H](C(=O)NC(c3ccccc3)c3ccccc3)N2C1=O	LC-MS/MS, noncompartmental	human, plasma	20 mg, cycle 1 day 1		502 ± 299 ng·h/mL
CC(C)c1nc(N(C)S(C)(=O)=O)nc(-c2ccc(F)cc2)c1/C=C/[C@@H](O)C[C@@H](O)CC(=O)O		healthy human subjects, plasma	oral, 10 mg, geometric mean, together with: fruquintinib 5 mg		28.6 ng·h/mL
CCn1cc(C(=O)N2CCOCC2)c(=O)c2cc(NC3Cc4ccccc4C3)cnc21		humans, fasted, plasma	oral, 300 mg, single dose, suspension		3730 ng·h/mL
[H]/N=C(/N)c1ccc(NCc2nc3cc(C(=O)N(CCC(=O)O)c4ccccn4)ccc3n2C)cc1		healthy humans, plasma	oral, 75 mg, alone, geometric mean		431 ng·h/mL
CN[C@@H](C)C(=O)N[C@H]1CN(S(=O)(=O)c2cccc(S(=O)(=O)N3CC[C@H]4CC[C@@H](C(=O)NC(c5ccccc5)c5ccccc5)N4C(=O)[C@@H](NC(=O)[C@H](C)NC)C3)c2)CC[C@H]2CC[C@@H](C(=O)NC(c3ccccc3)c3ccccc3)N2C1=O	LC-MS/MS	human, advanced solid tumours, plasma	intravenous, 12 mg weekly, day 1		207 ± 20.4 ng·h/mL
CC(=O)N1CCC(Nc2cc(C(=O)NC[C@H](O)CN3CCc4ccccc4C3)ncn2)CC1		human, plasma	oral, 300 mg, week 3 day 1, geometric mean		5650 ng·h/mL
CN1CCC(COc2cnc(-c3cccc(Cn4nc(-c5cccc(C#N)c5)ccc4=O)c3)nc2)CC1		human	500 mg, day 1, single dose alone, geometric mean		18300 ng·h/mL
CCN(CC)Cc1cc(Nc2ccnc3cc(Cl)ccc23)ccc1O		human, both sexes, plasma	oral, dose not given, fixed-dose combination		105 ng·h/mL
CC[C@H](C)[C@@H]([C@@H](CC(=O)N1CCC[C@H]1[C@H](OC)[C@@H](C)C(=O)N[C@@H](Cc1ccccc1)C(=O)NCCCO)OC)N(C)C(=O)[C@@H](NC(=O)[C@H](C(C)C)N(C)C)C(C)C		human patients, plasma	intravenous, 30 mg/m², cycle 1 geometric mean		1580 ng·h/mL
CNC(=O)c1ccc(-c2cnc3ncc(Cc4ccc5ncccc5c4)n3n2)cc1F		human, mild NCI classification, plasma	oral, 200 mg, adjusted geometric mean		6590 ng·h/mL
C=CCn1c(=O)c2cnc(Nc3ccc(N4CCN(C)CC4)cc3)nc2n1-c1cccc(C(C)(C)O)n1		human	oral, 250 mg once daily, monotherapy lead-in, -5 days	geometric mean	6.52 µM·h
COc1cc(-c2cnc3cc(OCCN4CCOCC4)ccn23)cc2c1C(=O)N(CC(F)(F)F)CC2	LC-MS	human, plasma	oral, 350 mg, day 5, together with: sulfasalazine 1000 mg		4800 ng·h/mL
C#C[C@]1(CO)O[C@@H](n2cnc3c(N)nc(F)nc32)C[C@@H]1O		human, fed, plasma	oral, 30 mg, geometric mean		3.43 µM·h
Cn1cc(-c2cn3nccc3c(-c3cnn([C@]4(CC#N)C[C@@H](C#N)C4)c3)n2)cn1		healthy humans fasted, plasma	30 mg single dose, geometric mean		639 ng·h/mL
CC(=O)c1ccc([C@H]2C[C@@]3(C)[C@@H](CC[C@@]3(O)C(F)(F)C(F)(F)F)[C@@H]3CCC4=CC(=O)CCC4=C32)cc1		human, pooled serum	oral, 200 mg single dose, 0 to 24 h		230 ng·h/mL
CO[C@H]1C[C@@H]2CC[C@@H](C)[C@@](O)(O2)C(=O)C(=O)N2CCCC[C@H]2C(=O)O[C@H]([C@H](C)C[C@@H]2CC[C@@H](OC(=O)NCCOCCOCCOCCOCCOCCOCCOCCOCCC(=O)N3CCc4cc(Cn5nc(-c6ccc7oc(N)nc7c6)c6c(N)ncnc65)ccc4C3)[C@H](OC)C2)C[C@@H](O)[C@H](C)/C=C(\C)[C@@H](O)[C@@H](OC)C(=O)[C@H](C)C[C@H](C)/C=C/C=C/C=C/1C		human, plasma	intravenous, 3 mg, cycle 1 day 1, arithmetic mean		78 ng·h/mL
Cc1cc(-c2nnc(N)nc2-c2ccc(F)cc2)cc(Cl)n1		human patients, plasma	oral, 150 mg capsule once daily, multiple doses, arithmetic mean		21600 ng·h/mL

A few entries again:
Structure (SMILES)	assay	system	conditions	scale	AUC(0-t)
NC(=S)NN=Cc1ncccc1N		human, plasma	intravenous, 50 mg, geometric mean		784 ng·h/mL
NC[C@@]1(CC(=O)O)[C@@H]2CC[C@H]3C[C@@H]2[C@@H]1C3		human, severely renal impairment, plasma	dose not given, geometric least squares mean		6500 ng·h/mL
O=C(O)CCC(=O)O.[2H]C([2H])([2H])Oc1cc(C)c2[nH]ccc2c1CN1CC[C@@H](C2CC2)C[C@H]1c1ccc(C(=O)O)cc1	LC-MS/MS, geometric mean	human, plasma	50 mg, single dose, fasting		31700 ng·h/mL
CC(C)c1nc(N(C)S(C)(=O)=O)nc(-c2ccc(F)cc2)c1/C=C/[C@@H](O)C[C@@H](O)CC(=O)O		healthy human subjects, plasma	oral, 10 mg, geometric mean, together with: fruquintinib 5 mg		28.6 ng·h/mL
CNC(=O)c1ccc(-c2cnc3ncc(Cc4ccc5ncccc5c4)n3n2)cc1F		human, mild NCI classification, plasma	oral, 200 mg, adjusted geometric mean		6590 ng·h/mL
COC(=O)N[C@@H](C)CNc1nccc(-c2cn(C(C)C)nc2-c2cc(Cl)cc(NS(C)(=O)=O)c2F)n1		human patients, plasma	oral, 450 mg twice daily, day 1, single dose, median, together with: binimetinib 45 mg once daily		26600 ng·h/mL
